Published values gathered from unrelated publications.
Protocols differ between the studies behind these lines. ± gives the spread as reported.
Organism: Trypanosoma cruzi

O=C1C(Cl)=C(NCCCn2cnc([N+](=O)[O-])n2)C(=O)c2ccccc21
IC50 (growth; L6 myoblasts, Tulahuen C4; intracellular amastigotes): 4 to 60 µM

N#CSCCOc1ccc(Oc2ccccc2)cc1
IC50 (parasite growth; Vero; 72 h, intracellular, amastigote): 5 µM

O=C(NC(c1ccccc1)c1ccc2cccnc2c1O)c1ccccc1 (stereo not drawn)
IC50 (imaging; 3T3 fibroblasts, Tulahuen amastigote; 48 h, stored DMSO sample): 0.69 ± 0.79 µM

N#CSCCOc1ccc(Oc2cccnc2)cc1
IC50 (parasite growth; Vero; 72 h, intracellular, amastigote): 7.4 µM

O=C(Cn1ccnc1[N+](=O)[O-])NCc1ccccc1
IC50 (parasite viability, resazurin; Y, trypomastigotes; 24 h, heme-free medium): 13 ± 5.7 µM

COc1ccc2sc(N(Cc3cccnc3)C(=O)c3ccc(C#N)cc3)nc2c1
IC50 (imaging; 3T3 fibroblasts, amastigote; 48 h): 3.55 ± 2.36 µM

O=C(Cn1ccnc1[N+](=O)[O-])NCc1ccccc1
IC50 (parasite growth, resazurin; 48 h, epimastigote): 8.54 µM

COc1ccc(C[C@H](N)C(=O)N[C@H]2[C@@H](O)[C@H](n3cnc4c(N(C)C)ncnc43)O[C@@H]2CO)cc1
IC50 (intracellular amastigote growth; 3T3 fibroblasts, Tulahuen; 48 h, re-sourced solid sample): 1.58 ± 1.44 µM

COc1ccc(C(=O)N2CCN(Cc3ccccc3)CC2)cc1
IC50 (parasite growth; mouse Peritoneal macrophage; 48 h, intracellular, amastigote): > 60 µM

O=[N+]([O-])c1ccc(/C=N/N=C/c2ccc([N+](=O)[O-])o2)cc1
IC50 (parasite growth, resazurin; trypomastigote): < 1 µM

Cc1cc(NCCCn2ccnc2[N+](=O)[O-])nc(N)n1
IC50 (growth; L6 myoblasts, Tulahuen C4; intracellular amastigotes): 4 to 60 µM

O=C(Cn1ccnc1[N+](=O)[O-])NCc1ccccc1
IC50 (Tulahuen C4, amastigotes): 6.11 µM

O=C1C(Cl)=C(NCCCn2ccnc2[N+](=O)[O-])C(=O)c2ccccc21
IC50 (growth; L6 myoblasts, Tulahuen C4; intracellular amastigotes): 4 to 60 µM

CCOc1cccc2sc(N(Cc3cccnc3)C(=O)C3CCCCC3)nc12
IC50 (imaging; 3T3 fibroblasts, Tulahuen amastigote; 48 h, stored DMSO sample): 0.46 ± 0.01 µM

O=C(Cn1ccnc1[N+](=O)[O-])NCc1ccccc1
IC50 (parasite release from CHO cells; Y strain, GFP-expressing; serum-free host culture): 7.5 µM

O=[N+]([O-])c1ccc(/C=N/N=C/c2ccccc2)o1
IC50 (parasite growth, resazurin; trypomastigote): < 2.5 µM

Clc1ccc2c(NCCCCn3cncn3)ccnc2c1
IC50 (parasite growth; L6, TULAHUEN; intracellular, amastigote): > 60 µM

Cc1cc(C2CCCCC2)n(O)c(=O)c1
IC50 (imaging; 3T3 fibroblasts, amastigote; 48 h): 5.37 ± 0.51 µM

O=[N+]([O-])c1nccn1CCCN(Cc1cccc(C(F)(F)F)c1)Cc1cccc(C(F)(F)F)c1
IC50 (growth; L6 myoblasts, Tulahuen C4; intracellular amastigotes): 4 to 60 µM

O=C(Cn1ccnc1[N+](=O)[O-])NCc1ccccc1
IC50 (parasite growth; mouse Peritoneal macrophage; 48 h, intracellular, amastigote): 5 µM

COc1ccc(C)c2sc(N(Cc3cccnc3)C(=O)c3ccc(C#N)cc3)nc12
IC50 (imaging; 3T3 fibroblasts, Tulahuen amastigote; 48 h, stored DMSO sample): 1.34 ± 0.00884 µM

N#CSCCOc1ccc(Oc2cccc([N+](=O)[O-])c2)cc1
IC50 (parasite growth; Vero; 72 h, intracellular, amastigote): 5.2 µM

COc1ccccc1N1CCN(C(CNS(=O)(=O)c2ccc(Cl)cc2)c2cccnc2)CC1 (stereo not drawn)
IC50 (imaging; 3T3 fibroblasts, Tulahuen amastigote; 48 h, stored DMSO sample): 2.25 ± 0.31 µM

COc1cc(/C=C/C(=O)N2CCN(Cc3ccccc3)CC2)ccc1O
IC50 (parasite growth; mouse Peritoneal macrophage; 48 h, intracellular, amastigote): > 60 µM

Some of these lines once more:
Cc1cc(NCCCn2ccnc2[N+](=O)[O-])nc(N)n1
IC50 (growth; L6 myoblasts, Tulahuen C4; intracellular amastigotes): 4 to 60 µM

COc1cc(/C=C/C(=O)N2CCN(Cc3ccccc3)CC2)ccc1O
IC50 (parasite growth; mouse Peritoneal macrophage; 48 h, intracellular, amastigote): > 60 µM

Cc1cc(C2CCCCC2)n(O)c(=O)c1
IC50 (imaging; 3T3 fibroblasts, amastigote; 48 h): 5.37 ± 0.51 µM
